Experimental data pooled from the literature.
± gives the spread as reported.

`CS(=O)(=O)n1cc2c(n1)CN([C@H]1CO[C@H](c3cc(F)ccc3F)[C@@H](N)C1)C2` has an AUC(0-last) of 334 µM·h (healthy male human, plasma; oral, 400 mg, fasted single dose).
`CC(C)(C)OC[C@@H]1C(=O)NCCN1C(=O)C[C@H](N)Cc1cc(F)c(F)cc1F` gave an AUC(0-last) of 0.164 ± 0.0287 µg·h/mL (human, male, plasma; oral, single dose, fixed-dose combination with metformin, fasted).
`CCOCCn1c(C2CCN(CCc3ccc(C(C)(C)C(=O)O)cc3)CC2)nc2ccccc21` has an AUC(0-last) of 1.47 µg·h/mL (human, severe renal insufficiency, plasma; oral, 20 mg).
With `CCCC[C@H](NC(C)=O)C(=O)N[C@H]1CC(=O)NCCCC[C@@H](C(=O)O)NC(=O)[C@H](Cc2c[nH]c3ccccc23)NC(=O)[C@H](CCCN=C(N)N)NC(=O)[C@@H](Cc2ccccc2)NC(=O)[C@H](Cc2cnc[nH]2)NC1=O` the AUC(0-last) was 0.277 ± 0.0515 µg·h/mL (LC-MS/MS, non-compartmental; human, plasma; subcutaneous, 2.5 mg once daily).
The AUC(0-last) of `COc1c(N2C[C@@H]3CCCN[C@@H]3C2)c(F)cc2c(=O)c(C(=O)O)cn(C3CC3)c12` is reported as 22.6 µg·h/mL (human; 400 mg single dose, median, alone).
For `O=c1[nH]c(=O)c(Cc2cccc(C(F)(F)F)c2)c([C@H]2CC[C@H](c3ccccc3)CC2)[nH]1`, the AUC(0-last) was 4.32 µg·h/mL (human, male, plasma; oral, 150 mg 14C solution, geometric mean).
`CC#CC(=O)NCCCC(=O)c1nc(-c2ccc(C(=O)Nc3ccccn3)cc2)c2c(N)nccn12` gave an AUC(0-last) of 0.638 µg·h/mL (human, severe hepatic impairment, plasma; oral, 50 mg acalabrutinib, single, geometric mean).
`CO[C@H]1C[C@@H]2CC[C@@H](C)[C@@](O)(O2)C(=O)C(=O)N2CCCC[C@H]2C(=O)O[C@H]([C@H](C)C[C@@H]2CC[C@@H](O)[C@H](OC)C2)CC(=O)[C@H](C)/C=C(\C)[C@@H](O)[C@@H](OC)C(=O)[C@H](C)C[C@H](C)/C=C/C=C/C=C/1C` gave an AUC(0-last) of 0.303 µg·h/mL (healthy humans, whole blood; oral, 2 mg single dose, with: isavuconazole 200 mg once daily after loading).
The AUC(0-last) of `CN1CCc2nc(C(=O)N[C@@H]3C[C@@H](C(=O)N(C)C)CC[C@@H]3NC(=O)C(=O)Nc3ccc(Cl)cn3)sc2C1` is reported as 1.66 µg·h/mL (human, plasma; 60 mg, fed, with: dronedarone).
For `CN(CCOc1ccc(CC2SC(=O)NC2=O)cc1)c1ccccn1` (stereo not shown), the AUC(0-last) was 1450 µg·h/mL (human, both sexes, plasma; oral, 4 mg alone, day 1, geometric mean).

Repeated from above:
`CC(C)(C)OC[C@@H]1C(=O)NCCN1C(=O)C[C@H](N)Cc1cc(F)c(F)cc1F` gave an AUC(0-last) of 0.164 ± 0.0287 µg·h/mL (human, male, plasma; oral, single dose, fixed-dose combination with metformin, fasted).
